Measurements gathered from unrelated publications.
Each line is one published result; not all experiments were run side by side.
ALK: ALK tyrosine kinase receptor (ALK, Homo sapiens, UniProt Q9UM73)

COc1cc(F)ccc1-c1ncnc(Nc2cccc(C[S@](C)(=N)=O)c2)n1 has a remaining activity of 91% (ALK; kinase activity; 10 µM, added: 10 µM ATP).
The remaining activity of CCOc1cc(N2CCN(C)CC2)ccc1Nc1nc(N)n(C(=O)NCc2ccccc2S(=O)(=O)C(C)C)n1 is reported as 11% (ALK; enzyme activity; 10 µM; baseline: control).
The remaining activity of c1cnc2ccc(Nc3nc(NC4CC4)c4nc[nH]c4n3)cc2c1 is reported as 78% (ALK; kinase activity, inhibitor, SelectScreen kinase profiling; 1 µM; baseline: control).
The remaining activity of COc1cc(N2CCN(C)CC2)ccc1Nc1nc(N)n(C(=S)NCc2c(Cl)cccc2Cl)n1 is reported as 0.1% (ALK; enzyme activity; 10 µM; baseline: control).
For O=C(NC1CCC1)c1ccc2nc(-c3cccc(NS(=O)(=O)NCCN4CCCCC4)c3)cn2c1, the remaining activity was 66% (ALK; enzyme activity; 10 µM).
With CC(C)Oc1cc(N2CCN(C)CC2)ccc1Nc1nc(N)n(C(=O)NCc2ccccc2S(=O)(=O)C(C)C)n1 the remaining activity was 8.2% (ALK; enzyme activity; 10 µM; baseline: control).
CC/C(=N\NC(=O)NCc1cccc(O)c1)c1ccc(O)c(C)c1O gave an inhibition of -4.5% (ALK tyrosine kinase receptor, EML4-ALK fusion (ALK, Homo sapiens, UniProt Q9UM73); kinase activity; 0.1 µM).
The inhibition of [2H]c1cc(C)c(NC(=O)c2cnc(Nc3cc(N4CCCCC4)nc(C)n3)s2)c(Cl)c1 is reported as under 30% (ALK; 0.01 µM).
For Cc1cc(Nc2cc(N3CCN(C)CC3)nc(Sc3ccc(NC(=O)C4CC4)cc3)n2)[nH]n1, the remaining activity was 92% (ALK; kinase activity, KinaseProfiler; 0.03 µM, species human; baseline: control).

Excerpt of the above:
COc1cc(F)ccc1-c1ncnc(Nc2cccc(C[S@](C)(=N)=O)c2)n1 has a remaining activity of 91% (ALK; kinase activity; 10 µM, added: 10 µM ATP).
